Values quoted from earlier work, collected from citations in different studies.
Numbered parts are unrelated; values within a part may stem from several laboratories. Numbers after ± are the reported error. Converted amounts (≈) assume the structure as drawn.

Sample 1
Target: HLA class I histocompatibility antigen, A alpha chain, allele A*80:01 (Homo sapiens, UniProt P04439)
Effect on: peptide-MHC binding
Form: peptide
| Molecule | IC50 |
| --- | --- |
| RSVWIPGRW | > 20000 nM |
| CASSSDWFY | > 20000 nM |
| ITDFNIDTY | 308 nM |
| FEFILRYGD | > 20000 nM |
| NSESGNSRY | > 20000 nM |
| GVEGIGLQY | 339 nM |
| APRRRDEEL | > 20000 nM |
| LLDLEGHIL | > 20000 nM |
| GMHDGTVGK | > 20000 nM |
| QLFPELECF | > 20000 nM |
| FNCGGEFFY | 52.8 nM |
| LNWFEIWIV | > 20000 nM |
| VYQRGTHPF | > 20000 nM |
| YTDKIAMSY | 1 nM |

Further values, each from its own experiment
| SMILES | tested on | assay | system | setting | how to read | measurement | value |
| --- | --- | --- | --- | --- | --- | --- | --- |
| COC(=O)[C@@H]1C[C@H](OC(C)=O)C(=O)[C@H]2[C@@]1(C)CC[C@H]1C(=O)O[C@H](c3ccoc3)C[C@]21C | kappa opioid receptor Y313A |  |  |  |  | Ki | 694 ± 106 nM |
| OCc1ncc2n1-c1ccc(Cl)cc1C(c1ccccc1F)=NC2 |  |  |  | single-compartment model |  | rate constant into compartment | 0 L/h |
| CNC(C)C1CCC(N)C(OC2C(N)CC(N)C(OC3OCC(C)(O)C(NC)C3O)C2O)O1 (centres unmarked) | Escherichia coli |  | AR0346 colistin resistant |  |  | MIC | > 16 µg/mL |
| CN1C(=O)CN=C(c2ccccc2F)c2cc([N+](=O)[O-])ccc21 | GABAA-a1 | binding, ligand binding |  |  |  | Kd | 1.4 nM |
| CCCCCCCC[C@H]1O[C@H]1C/C=C/C=C/[C@H](O)CC(=O)NC1=C[C@](C)(CC)OC1=O | Na+-NQR Vibrio alginolyticus NqrB G140V |  |  |  | relative to: mutant over wild type | resistance factor | ~100000 |
| CC1(C)NC(=O)C(Cc2ccc(O)cc2)NC(=O)CNC(=O)C(Cc2ccc3ccccc3c2)NC(=O)C(CCCN=C(N)N)NC1=O (centres unmarked) | human CXCR4 W94A mutant |  |  |  |  | EC50 | 20 nM |
| CNS(=O)(=O)Nc1nccc(Cc2c(C)c3ccc(Oc4ncccn4)cc3oc2=O)c1F |  |  | human patients | oral, 7 days on, 7 days off |  | maximum tolerated dose | 2.7 mg |
| O=C(O)C(F)(F)C(F)(F)C(F)(F)C(F)(F)C(F)(F)F |  | polarographic respiration | isolated rat liver mitochondria | 200 µM |  | oxidative phosphorylation | no effect |
| CCN(CC)C(=O)[C@@H]1C=C2c3cccc4[nH]cc(c34)C[C@H]2N(C)C1 | serotonin receptor (rat), non-selective | binding, radioligand binding | cortical membranes |  |  | Kd | 7.2 nM |
| CC(C)N(CCC(C(N)=O)(c1ccccc1)c1ccccn1)C(C)C (centres unmarked) |  |  | rat, plasma |  |  | fraction unbound | 0.61 |
| CC(C)(O/N=C(\C(=O)N[C@@H]1C(=O)N2C(C(=O)[O-])=C(C[n+]3ccccc3)CS[C@H]12)c1csc(N)n1)C(=O)O | Escherichia coli | bacterial growth | colistin-resistant |  |  | MIC | 16 µg/mL (≈ 29.3 µM) |
| CCCCCc1cc(O)c(C/C=C(\C)CCC=C(C)C)c(O)c1 | CYP2B6, human | enzyme activity, inhibitor | human liver microsomes | 10 µM |  | inhibition | inhibited |
| C[C@@H]1CC[C@H]2[C@@H](C)C(=O)O[C@@H]3O[C@@]4(C)CC[C@@H]1[C@]32OO4 | CEM/ADR5000 P-gp overexpressing multidrug-resistant | cell viability |  |  |  | IC50 | 26900 ± 4400 nM |
| c1c[nH]cn1 | sperm whale myoglobin L29F, met form |  |  | pH 7 |  | apparent association rate constant | 120 M⁻¹ s⁻¹ |
| CCCCCc1cc(O)c2c(c1)OC(C)(C)[C@@H]1CCC(C)=C[C@@H]21 | CYP2D6 human |  | human liver microsomes | 10 µM |  | inhibition | inhibited |
